{"data": "Published values gathered from unrelated publications", "note": "Protocols differ between the studies behind these lines. Values joined by “and” are separate records of one study, mostly repeats; a detail may differ. ± marks the error that the study gave."}
{"Compound": "O=C(NCCCl)Oc1ccc(Cl)c2cccnc12", "cell line": "HUVEC", "test": "cell proliferation, [3H]thymidine incorporation", "IC50": "2110 ± 250 nM"}
{"Compound": "Cc1cnc(C#Cc2cccc(-c3nn(-c4nc(C(=O)O)cs4)c(CC4CC4)c3Cc3ccc(S(N)(=O)=O)c(F)c3)c2)o1", "cell line": "HEK293T", "test": "lactate production", "conditions": "1 h", "IC50": "1600 nM"}
{"Compound": "COc1ccc(CC(=O)OCc2ccc(-n3cccn3)cc2)cc1F", "cell line": "WI-38", "test": "cytotoxicity", "IC50": "> 100000 nM"}
{"Compound": "CCOc1cc(C(C)(C)C)ccc1C1=N[C@H](c2ccc(Cl)cc2)[C@H](c2ccc(Cl)cc2)N1C(=O)N1CCN(CC(=O)NCCOCCOCCOCCNC(=O)CN2CCN(C(=O)N3C(c4ccc(C(C)(C)C)cc4OCC)=N[C@H](c4ccc(Cl)cc4)[C@@H]3c3ccc(Cl)cc3)CC2=O)C(=O)C1", "cell line": "HCT-116 p53 wild type", "test": "cell growth, CCK-8", "IC50": "8700 ± 2200 nM"}
{"Compound": "CC(C)Oc1cc(C(=O)N2CCC(N3CCN(C)CC3)CC2)ccc1Nc1ncc2c(n1)N(C1CCCC1)c1ccccc1C(=O)N2C", "cell line": "797 NUT midline carcinoma cells", "test": "viability, CellTiter-Glo", "conditions": "3 days", "IC50": "465 ± 12 nM"}
{"Compound": "O=C(O)CCCN1C(=O)c2ccc3c4c(ccc(c24)C1=O)C(=O)N(c1cc(C(=O)O)ccc1O)C3=O", "cell line": "PC-12", "test": "neurite outgrowth", "conditions": "72 h, added: 500 pM NGF", "IC50": "5450 nM"}
{"Compound": "CN[C@H](c1nc2cc(-c3ccnc(F)c3)sc2c(=O)[nH]1)C(C)C", "cell line": "COLO 205", "test": "cell growth, MTT", "IC50": "8840 ± 265 nM"}
{"Compound": "COc1cccc2c1C(=O)N1CCc3c([nH]c4ccccc34)C1N2Cc1ccc(C(=O)NCCCC(=O)NO)cc1 (racemic)", "cell line": "MCF7", "test": "cell viability, CCK-8", "IC50": "> 10000 nM"}
{"Compound": "COCC#Cc1cc(-c2nn(-c3nc(C(=O)O)cs3)c(CC3CC3)c2Cc2ccc(S(N)(=O)=O)c(F)c2)ccc1F", "cell line": "HEK293T", "test": "lactate production", "conditions": "1 h", "IC50": "1300 nM"}
{"Compound": "CC[C@H](N)c1nc2cc(-c3ccnc(F)c3)sc2c(=O)[nH]1", "cell line": "COLO 205", "test": "cell growth, MTT", "IC50": "103 ± 3.07 nM"}
{"Compound": "CC[C@@H](C)[C@H](N)C(=O)N1Cc2ccc(F)cc2C1", "cell line": "K562", "test": "cell viability, CellTiter-Glo", "IC50": "> 60000 nM"}
{"Compound": "Cc1n[nH]c(C)c1CCOC(=O)c1cccc2c1oc(=O)n2C", "cell line": "HS27", "test": "cytotoxicity", "IC50": "> 100000 nM"}
{"Compound": "CC(C)[C@H](N)c1nc2cc(-c3cc(F)ncc3F)sc2c(=O)[nH]1", "cell line": "COLO 205", "test": "cell growth, MTT", "IC50": "336 ± 13.4 nM"}
{"Compound": "CN1c2ccc(F)cc2C(=O)N2CCc3c([nH]c4ccc(OCc5cccc(C(=O)NO)c5)cc34)C21 (centres unmarked)", "cell line": "HCT-116", "test": "cell viability, CCK-8", "IC50": "> 20000 nM"}
{"Compound": "CN1CCN(c2cc(C(=O)Nc3ccc4c(c3)-c3c(c(C(N)=O)nn3-c3ccc(F)cc3)CC4)c(Cl)cn2)CC1", "cell line": "human PBMC", "test": "TNF-α production", "conditions": "2 h preincubation", "IC50": "40 to 70 nM"}
{"Compound": "COc1cc2ncc(-c3cccc(NC4CCNC4)n3)n2cc1-c1cnn(C)c1 (racemic)", "cell line": "MOLM-14 FLT3 D835Y", "test": "cell growth", "IC50": "30 nM"}
{"Compound": "Cc1cnc(Nc2ccc(N3CCN(C)CC3)cc2)nc1Nc1cccc(NS(=O)(=O)C(C)(C)C)c1", "cell line": "UKE1", "test": "cell growth, CellTiter Blue", "conditions": "72 h", "IC50": "130 nM"}
{"Compound": "NS(=O)(=O)c1ccc(Cc2c(-c3ccc(F)c(C#CC4CC4)c3)nn(-c3nc(C(=O)O)cs3)c2CC2CC2)cc1F", "cell line": "HEK293T", "test": "lactate production", "conditions": "1 h", "IC50": "600 nM"}
{"Compound": "CC[C@H](N)c1nc2cc(-c3ccncc3F)sc2c(=O)[nH]1", "cell line": "COLO 205", "test": "cell growth, MTT", "IC50": "67.3 ± 3.36 nM"}
{"Compound": "CC(=NN=c1[nH]c2cc(F)c(F)cc2n1C)c1ccc(F)cn1", "cell line": "MCF7", "test": "viability, MTT", "conditions": "72 h", "IC50": "7.5 nM and 7 nM"}
{"Compound": "COc1cc(C(=O)N2CCC(N3CCN(C)CC3)CC2)ccc1Nc1ncc2c(n1)N(C1CCCC1)c1ccccc1C(=O)N2C", "cell line": "797 NUT midline carcinoma cells", "test": "viability, CellTiter-Glo", "conditions": "3 days", "IC50": "664 ± 14 nM"}
{"Compound": "CN(C)C(=O)Cn1cc(-c2ccc(-c3cncc4ccncc34)cc2)cn1", "cell line": "MM.1R", "test": "cell growth, viability", "IC50": "< 1000 nM"}
{"Compound": "CC(C)[C@H](N)c1nc2cc(-c3cnoc3)sc2c(=O)[nH]1", "cell line": "COLO 205", "test": "cell growth, MTT", "IC50": "> 10000 nM"}
{"Compound": "O=C(O)c1ccc(Cl)c(N2C(=O)c3ccc4c5c(ccc(c35)C2=O)C(=O)N(c2cc(C(=O)O)ccc2Cl)C4=O)c1", "cell line": "PC-12", "test": "neurite outgrowth", "conditions": "72 h, added: 500 pM NGF", "IC50": "16900 nM"}
{"Compound": "COc1cc2nccc(Oc3ccc(NC(=S)NC4CCC4)c(Cl)c3)c2cc1C(N)=O", "cell line": "HUVEC", "test": "cell proliferation, luminescent viability", "conditions": "72 h, added: 20 ng/mL VEGF-A", "IC50": "20.7 nM"}
{"Compound": "C[C@H](N)c1nc2cc(-c3ccncc3F)sc2c(=O)[nH]1", "cell line": "COLO 205", "test": "cell growth, MTT", "IC50": "515 ± 15.4 nM"}
{"Compound": "C=CC(=O)N1CCC(c2cc(Nc3cc4n(n3)CCOC4)c3ncnn3c2)C1 (single isomer, unassigned)", "cell line": "Ramos", "test": "calcium flux, FLIPR", "conditions": "4 h preincubation, added: anti-IgM", "IC50": "> 1000 nM"}
{"Compound": "NS(=O)(=O)c1ccc(Oc2c(-c3cccc(-c4ccccc4)c3)nn(-c3nc(C(=O)O)cs3)c2C2CC2)cc1", "cell line": "HEK293T", "test": "lactate production", "conditions": "1 h", "IC50": "2600 nM"}
{"Compound": "Cc1ccccc1OCCCSCc1nc2ccccc2[nH]1", "cell line": "SW620-GFP organoids", "test": "reporter gene, measured: vimentin-GFP reporter", "how to read": "downregulation", "IC50": "> 40000 nM"}
{"Compound": "CC1(C#Cc2cc(-c3nn(-c4nc(C(=O)O)cs4)c(CC4CC4)c3Cc3ccc(S(N)(=O)=O)c(F)c3)ccc2F)COC1", "cell line": "HEK293T", "test": "lactate production", "conditions": "1 h", "IC50": "1800 nM"}
{"Compound": "C=CC(=O)Nc1ccc(-n2nc3c(=O)[nH]nc(N)c3c2-c2oc3ccc(C)cc3c2C)cc1N(C)CCN(C)C", "cell line": "SNU-16 (FGFR2 amplified)", "test": "cell proliferation", "IC50": "12.2 ± 3.9 nM"}
{"Compound": "Cc1cnc(C#Cc2cccc(-c3nn(-c4nc(C(=O)O)cs4)c(CCC4CC4)c3Cc3ccc(S(N)(=O)=O)c(F)c3)c2)s1", "cell line": "HEK293T", "test": "lactate production", "conditions": "1 h", "IC50": "400 nM"}
{"Compound": "O=C(O)c1cc(Cl)cc(N2C(=O)c3ccc4c5c(ccc(c35)C2=O)C(=O)N(c2cc(Cl)cc(C(=O)O)c2Cl)C4=O)c1Cl", "cell line": "PC-12", "test": "neurite outgrowth", "conditions": "72 h, added: 500 pM NGF", "IC50": "> 100000 nM"}
{"Compound": "O=C(O)c1csc(-n2nc(-c3ccccc3)cc2C(F)(F)F)n1", "cell line": "HEK293T", "test": "lactate production", "conditions": "1 h", "IC50": "> 50000 nM"}
{"Compound": "Nc1ccc(Cl)c2cccnc12", "cell line": "HFF", "test": "cell viability, calcein-AM", "IC50": "4770 nM"}
{"note": "Repeated from above:"}
{"Compound": "O=C(O)CCCN1C(=O)c2ccc3c4c(ccc(c24)C1=O)C(=O)N(c1cc(C(=O)O)ccc1O)C3=O", "cell line": "PC-12", "test": "neurite outgrowth", "conditions": "72 h, added: 500 pM NGF", "IC50": "5450 nM"}
{"Compound": "CC[C@H](N)c1nc2cc(-c3ccnc(F)c3)sc2c(=O)[nH]1", "cell line": "COLO 205", "test": "cell growth, MTT", "IC50": "103 ± 3.07 nM"}
{"Compound": "COCC#Cc1cc(-c2nn(-c3nc(C(=O)O)cs3)c(CC3CC3)c2Cc2ccc(S(N)(=O)=O)c(F)c2)ccc1F", "cell line": "HEK293T", "test": "lactate production", "conditions": "1 h", "IC50": "1300 nM"}
{"Compound": "O=C(O)c1cc(Cl)cc(N2C(=O)c3ccc4c5c(ccc(c35)C2=O)C(=O)N(c2cc(Cl)cc(C(=O)O)c2Cl)C4=O)c1Cl", "cell line": "PC-12", "test": "neurite outgrowth", "conditions": "72 h, added: 500 pM NGF", "IC50": "> 100000 nM"}
{"Compound": "CC(=NN=c1[nH]c2cc(F)c(F)cc2n1C)c1ccc(F)cn1", "cell line": "MCF7", "test": "viability, MTT", "conditions": "72 h", "IC50": "7.5 nM and 7 nM"}
